Experimental data pooled from the literature.
Lines come from different studies, so protocols differ. Several values in a cell are separate wells, animals, samples, runs or records. ± gives the spread as reported.
Mitogen-activated protein kinase 14: Mitogen-activated protein kinase 14 (Rattus norvegicus, UniProt P70618)
CTSL: Procathepsin L (CTSL, Homo sapiens, UniProt P07711)
KCNH2: Voltage-gated inwardly rectifying potassium channel KCNH2 (KCNH2, Homo sapiens, UniProt Q12809)
CA2: Carbonic anhydrase 2 (CA2, Homo sapiens, UniProt P00918)

| Compound | target | assay | system | setting | IC50 |
| --- | --- | --- | --- | --- | --- |
| CC[C@H](C)[C@H](NC(=O)[C@H](CCCCN)NC(=O)[C@H](CC(C)C)NC(=O)CNC(=O)[C@@H]1CCCN1C(=O)[C@H](CC(N)=O)NC(=O)[C@H](CCCNC(=N)N)NC(=O)[C@H](CCCCN)NC(=O)[C@H](CCCCN)NC(=O)CNC(=O)[C@H](CCCCN)NC(=O)[C@H](CO)NC(=O)[C@H](C)NC(=O)[C@@H](N)Cc1ccc(O)cc1)C(=O)N1CCC[C@H]1C(=O)N[C@@H](CCCCN)C(=O)O | Mitogen-activated protein kinase 14 | enzyme activity, inhibitor, fluorescence |  | pH 7.4 | 9.85 µM |
| CCC1c2ccsc2CCN1C(=O)Cn1cc(CC2NC(=O)NC2=O)nn1 (centres unmarked) | CTSL | enzyme activity, inhibitor, FRET |  |  | > 100 µM |
| O=C(O)CCn1c(=O)oc2cc(Cl)c(Cl)cc21 | KCNH2 | ion current, inhibitor |  |  | > 63.1 µM |
| CCCN(CCCC[C@H](NC(=O)[C@H](CCCN1CCOCC1)NC(=O)[C@@H](NC(=O)[C@H](Cc1ccccc1)NC(=O)c1ccc(C(C)(C)C)cc1)C1CCC1)C(=O)N[C@@H](CO)C(N)=O)C1CC2CCC1C2 (some centres unmarked) | Chromobox protein homolog 8 (Homo sapiens, UniProt Q9HC52) | ligand displacement, TR-FRET |  |  | 0.43 µM |
| CC[C@H](C)[C@H](NC(=O)[C@H](CCCCN)NC(=O)[C@H](CC(N)=O)NC(=O)[C@H](CCCNC(=N)N)NC(=O)[C@H](CCCCN)NC(=O)[C@@H](NC(=O)[C@H](CCCCN)NC(=O)[C@H](C)NC(=O)[C@@H](N)Cc1ccc(O)cc1)[C@@H](C)O)C(=O)N[C@@H](CC(C)C)C(=O)N[C@@H](CCCCN)C(=O)N[C@@H](CC(C)C)C(=O)N[C@@H](CCCCN)C(=O)N[C@@H](Cc1ccccc1)C(=O)N1CCC[C@H]1C(=O)N[C@@H](CCCNC(=N)N)C(=O)O | Mitogen-activated protein kinase 14 | enzyme activity, inhibitor, fluorescence |  | pH 7.4 | 1.5 µM |
| CC(C)C[C@H](NC(=O)[C@H](CCC(=O)O)NC(=O)[C@H](CO)NC(=O)[C@@H](NC(=O)[C@H](C)NC(=O)[C@H](Cc1ccc(O)cc1)NC(=O)[C@@H]1CCCN1C(=O)[C@H](CCC(N)=O)NC(=O)[C@H](CCCNC(=N)N)NC(=O)[C@@H](N)CC(N)=O)C(C)C)C(=O)O | MHC-I ELA-A9, horse | binding, competitive radioligand binding |  | pH 7 | 0.003 µM |
| CC(C)Oc1c(NC(=O)c2ccc(NC(=O)C(CC(N)=O)NC(=O)c3cc(F)c(N=Nc4c(F)cccc4F)c(F)c3)cc2)ccc(C(=O)NN=Cc2ccc(C(=O)O)cc2)c1O (centres unmarked) | DNA gyrase (gyrA/gyrB, Escherichia coli, UniProt P0AES4+P0AES6) | DNA supercoiling, inhibitor |  | 30 min, 37 °C, after 1 h irradiation at 365 nm | > 25 µM |
| Nc1ccn(C2OC(COP(=O)(O)OP(=O)(O)OP(=O)(O)O)C(O)C2(F)F)c(=O)n1 (centres unmarked) | pyrG (Escherichia coli, UniProt P0A7E5) | glutamine-dependent CTP formation, inhibitor |  | together with: 2 mM MgCl2 | 11.5 ± 0.5 µM |
| CC[C@H](C)[C@H](NC(=O)[C@H](C)NC(=O)[C@@H](N)Cc1ccc(O)cc1)C(=O)N[C@@H](CCCNC(=N)N)C(=O)N[C@@H](C)C(=O)N[C@@H](CCCNC(=N)N)C(=O)N[C@@H](CCCNC(=N)N)C(=O)NCC(=O)N[C@@H](CC(C)C)C(=O)N[C@@H](C)C(=O)N[C@@H](CCCNC(=N)N)C(=O)N[C@@H](CC(C)C)C(=O)N[C@@H](C)C(=O)N[C@H](C(=O)N[C@@H](CO)C(=O)N[C@@H](CC(=O)O)C(=O)O)C(C)C | Mitogen-activated protein kinase 14 | enzyme activity, inhibitor, fluorescence |  | pH 7.4 | 64.9 µM |
| C=CC(=O)N1[C@H](c2ccc3c(c2)OCO3)c2[nH]c3ccccc3c2C[C@H]1C(=O)N1CCOCC1 | Hepatocyte nuclear factor 3-alpha (FOXA1, Homo sapiens, UniProt P55317) | probe reactivity, gel-based ABPP | purified protein | together with: oligonucleotide | 8 µM |
| CNC(=O)C[C@H](Cc1ccncc1)NC(=O)[C@@H](Cc1cccc(Br)c1)NC(=O)[C@@H](N)Cc1ccsc1 | CTSL | enzyme activity, inhibitor |  |  | > 10 µM |
| Cc1nc(N2CCC(N(C)c3cc(C(=O)NCCN4CCCC4)cnn3)CC2)nc(C)c1CC(C)C | Cytochrome P450 2B6 (CYP2B6, Homo sapiens, UniProt P20813) | enzyme activity, inhibitor |  |  | > 30 µM |
| CCN1CCC[C@H]1CNC(=O)c1cc([N+](=O)[O-])c(N(C)C)cc1OC | uncharacterized protein (Apis mellifera, UniProt A0A7M6W5G5) | enzyme activity, inhibitor, Ellman |  | pH 7.4, 30 °C, together with: 1 mM acetylthiocholine | 15 µM |
| CN1CCCCC1C(=O)NC(Cc1ccc(-c2ccccc2)cc1)B(O)O (centres unmarked) | 20S proteasome, beta1 subunit (Plasmodium falciparum, UniProt Q8I0U7+Q8I6T3) | β1 activity, inhibitor |  | together with: Ac-nLPnLD-AMC | > 10 µM |
| CC(C)NCCN1C(=O)CSC1c1ccc(Cl)cc1Cl (centres unmarked) | uncharacterized protein (Anopheles gambiae, UniProt Q7QFG0) | enzyme activity, inhibitor, Ellman |  | together with: 1 mM acetylthiocholine | > 200 µM |
| O=C(Nc1ccc(-c2ccccc2)cc1)N[C@H]1[C@H]([C@H](O)[C@H](O)CO)OC(C(=O)O)=C[C@@H]1O | Sialidase-3 (Homo sapiens, UniProt Q9UQ49) | enzyme activity, inhibitor |  |  | > 500 µM |

| Compound | target | assay | system | setting | IC50 |
| --- | --- | --- | --- | --- | --- |
| Cc1nc2c(=O)n(C)c(=O)nc-2n(C)n1 | Cruzipain (Trypanosoma cruzi, UniProt P25779) | enzyme activity, inhibitor |  |  | 2 µM |
| CC(C)[C@H](NC(=O)[C@@H](N)CCC(=O)O)C(=O)N[C@@H](CC(N)=O)C(=O)N[C@@H](Cc1ccc(O)cc1)C(=O)N[C@@H](CC(=O)O)C(=O)N[C@@H](Cc1ccccc1)C(=O)NCC(=O)NCC(=O)N[C@@H](CCCCN)C(=O)O | Angiotensin-converting enzyme (ACE, Homo sapiens, UniProt P12821) | enzyme activity, inhibitor |  |  | 151 µM and ~151 µM |
| O=C(c1cc(Cc2n[nH]c(=O)c3ccccc23)ccc1F)N1CC(CNC2CC2)C1 | Protein mono-ADP-ribosyltransferase PARP12 (PARP12, Homo sapiens, UniProt Q9H0J9) | enzyme activity, inhibitor |  |  | > 10 µM |
| Cc1ccc(-c2csc(NN=C(C=Cc3c(Cl)cccc3Cl)C(=O)O)n2)cc1 | Cholinesterase (BCHE, Equus caballus, UniProt P81908) | enzyme activity, inhibitor |  |  | 6.14 µM |
| CC[C@H](C)[C@H](NC(=O)[C@H](C)NC(=O)[C@H](CCC(=O)O)NC(=O)[C@H](CC(C)C)NC(=O)[C@H](CO)NC(=O)[C@H](CCCNC(=N)N)NC(=O)[C@H](CCCNC(=N)N)NC(=O)[C@H](CC(C)C)NC(=O)[C@H](CC(C)C)NC(=O)[C@@H](NC(=O)[C@H](C)NC(=O)[C@@H](N)Cc1ccc(O)cc1)[C@@H](C)CC)C(=O)N[C@@H](CCC(=O)O)C(=O)N[C@@H](CC(C)C)C(=O)NCC(=O)N[C@@H](CC(C)C)C(=O)O | Mitogen-activated protein kinase 14 | enzyme activity, inhibitor, fluorescence |  | pH 7.4 | 71.1 µM |
| CCc1nnc(-c2c(OC)cc(-c3cnc4cc(-c5cnn(C)c5)ccn34)cc2OC)o1 | Cytochrome P450 2D6 (CYP2D6, Homo sapiens, UniProt P10635) | enzyme activity, inhibitor |  |  | > 10 µM |
| CN(C)CCCN1C(=O)CSC1c1ccccc1Cl (centres unmarked) | uncharacterized protein (Apis mellifera, UniProt A0A7M6W5G5) | enzyme activity, inhibitor, Ellman |  | together with: 1 mM acetylthiocholine | 22 µM |
| CC(C)C[C@H](NC(=O)[C@H](CCCNC(=N)N)NC(=O)[C@H](CCCNC(=N)N)NC(=O)CNC(=O)[C@H](C)NC(=O)[C@@H](N)Cc1ccc(O)cc1)C(=O)N[C@@H](CCCCN)C(=O)NCC(=O)N[C@@H](C)C(=O)N[C@@H](CCCNC(=N)N)C(=O)N[C@@H](CCCNC(=N)N)C(=O)N[C@@H](CC(C)C)C(=O)N[C@@H](CCCCN)C(=O)N[C@@H](CC(C)C)C(=O)N[C@@H](CO)C(=O)N1CCC[C@H]1C(=O)O | Mitogen-activated protein kinase 14 | enzyme activity, inhibitor, fluorescence |  | pH 7.4 | 11.5 µM |
| C[C@@H]1COCCN1c1nc(NCc2cccnc2C(F)(F)F)c2cccnc2n1 | KCNH2 | ion current, inhibitor |  |  | 31.8 µM |
| Cc1ccc(S(=O)(=O)Oc2ccc(/C=N/NS(=O)(=O)c3ccc(Cl)cc3)cc2)cc1 | CA2 | enzyme activity, inhibitor, absorbance |  |  | 0.0342 µM |
| C=CC(=O)Nc1cc(-c2nn(C3CCC(N4CCN(C(C)=O)CC4)CC3)c3ncnc(N)c23)ccc1Oc1ccccc1 (centres unmarked) | Epidermal growth factor receptor (EGFR, Homo sapiens, UniProt P00533) | enzyme activity, inhibitor, FRET |  |  | 5.6 µM |
| CC(C)C[C@H](NC(=O)[C@H](CCC(N)=O)NC(=O)[C@H](CCCCN)NC(=O)[C@H](CCCNC(=N)N)NC(=O)[C@H](CCCCN)NC(=O)[C@H](CCC(=O)O)NC(=O)[C@H](CCCNC(=N)N)NC(=O)[C@H](CCCNC(=N)N)NC(=O)CNC(=O)[C@H](CC(N)=O)NC(=O)[C@H](C)NC(=O)[C@@H](N)Cc1ccc(O)cc1)C(=O)N[C@H](C(=O)N[C@@H](CC(C)C)C(=O)N1CCC[C@H]1C(=O)N[C@@H](CO)C(=O)O)[C@@H](C)O | Mitogen-activated protein kinase 14 | enzyme activity, inhibitor, fluorescence |  | pH 7.4 | 65.7 µM |
| CCCCCCCCCCN(O)C(=O)CCCCC[C@@H]1NC(=O)[C@H]2CCCN2C(=O)[C@H](Cc2ccccc2)NC(=O)[C@H](Cc2ccccc2)NC1=O | Histone deacetylase 1 (HDAC1, Homo sapiens, UniProt Q13547) | enzyme activity, inhibitor, fluorescence |  |  | 0.013 µM |
| CC[C@H](C)[C@H](NC(=O)[C@H](CCCNC(=N)N)NC(=O)[C@H](CCCNC(=N)N)NC(=O)[C@H](CC(C)C)NC(=O)[C@@H](N)Cc1ccccc1)C(=O)N[C@@H](CCCNC(=N)N)C(=O)N1CCC[C@H]1C(=O)N[C@@H](CCCCN)C(=O)N[C@@H](CC(C)C)C(=O)N[C@@H](CCCCN)C(=O)O | B2 bradykinin receptor (BDKRB2, Homo sapiens, UniProt P30411) | ligand displacement, radioligand |  | pH 6.8 | 2.6 µM |
| CSCc1cn(CC(=O)N2CCc3sccc3C2)nn1 | CTSL | enzyme activity, inhibitor, FRET |  |  | > 100 µM |
| COc1ccc(S(=O)(=O)Oc2ccc(/C=N/NS(=O)(=O)c3ccc(Cl)cc3)cc2)cc1 | CA2 | enzyme activity, inhibitor, absorbance |  |  | 0.302 µM |

For quick reference, copied from above:
| Compound | target | assay | system | setting | IC50 |
| --- | --- | --- | --- | --- | --- |
| COc1ccc(S(=O)(=O)Oc2ccc(/C=N/NS(=O)(=O)c3ccc(Cl)cc3)cc2)cc1 | CA2 | enzyme activity, inhibitor, absorbance |  |  | 0.302 µM |
| Cc1nc2c(=O)n(C)c(=O)nc-2n(C)n1 | Cruzipain (Trypanosoma cruzi, UniProt P25779) | enzyme activity, inhibitor |  |  | 2 µM |
| Nc1ccn(C2OC(COP(=O)(O)OP(=O)(O)OP(=O)(O)O)C(O)C2(F)F)c(=O)n1 (centres unmarked) | pyrG (Escherichia coli, UniProt P0A7E5) | glutamine-dependent CTP formation, inhibitor |  | together with: 2 mM MgCl2 | 11.5 ± 0.5 µM |
